Published values from different studies.
Every numbered part comes from another study and shows a few of its results, in no order.
Sequence of UniProt Q5S007 (whole entry, looked up): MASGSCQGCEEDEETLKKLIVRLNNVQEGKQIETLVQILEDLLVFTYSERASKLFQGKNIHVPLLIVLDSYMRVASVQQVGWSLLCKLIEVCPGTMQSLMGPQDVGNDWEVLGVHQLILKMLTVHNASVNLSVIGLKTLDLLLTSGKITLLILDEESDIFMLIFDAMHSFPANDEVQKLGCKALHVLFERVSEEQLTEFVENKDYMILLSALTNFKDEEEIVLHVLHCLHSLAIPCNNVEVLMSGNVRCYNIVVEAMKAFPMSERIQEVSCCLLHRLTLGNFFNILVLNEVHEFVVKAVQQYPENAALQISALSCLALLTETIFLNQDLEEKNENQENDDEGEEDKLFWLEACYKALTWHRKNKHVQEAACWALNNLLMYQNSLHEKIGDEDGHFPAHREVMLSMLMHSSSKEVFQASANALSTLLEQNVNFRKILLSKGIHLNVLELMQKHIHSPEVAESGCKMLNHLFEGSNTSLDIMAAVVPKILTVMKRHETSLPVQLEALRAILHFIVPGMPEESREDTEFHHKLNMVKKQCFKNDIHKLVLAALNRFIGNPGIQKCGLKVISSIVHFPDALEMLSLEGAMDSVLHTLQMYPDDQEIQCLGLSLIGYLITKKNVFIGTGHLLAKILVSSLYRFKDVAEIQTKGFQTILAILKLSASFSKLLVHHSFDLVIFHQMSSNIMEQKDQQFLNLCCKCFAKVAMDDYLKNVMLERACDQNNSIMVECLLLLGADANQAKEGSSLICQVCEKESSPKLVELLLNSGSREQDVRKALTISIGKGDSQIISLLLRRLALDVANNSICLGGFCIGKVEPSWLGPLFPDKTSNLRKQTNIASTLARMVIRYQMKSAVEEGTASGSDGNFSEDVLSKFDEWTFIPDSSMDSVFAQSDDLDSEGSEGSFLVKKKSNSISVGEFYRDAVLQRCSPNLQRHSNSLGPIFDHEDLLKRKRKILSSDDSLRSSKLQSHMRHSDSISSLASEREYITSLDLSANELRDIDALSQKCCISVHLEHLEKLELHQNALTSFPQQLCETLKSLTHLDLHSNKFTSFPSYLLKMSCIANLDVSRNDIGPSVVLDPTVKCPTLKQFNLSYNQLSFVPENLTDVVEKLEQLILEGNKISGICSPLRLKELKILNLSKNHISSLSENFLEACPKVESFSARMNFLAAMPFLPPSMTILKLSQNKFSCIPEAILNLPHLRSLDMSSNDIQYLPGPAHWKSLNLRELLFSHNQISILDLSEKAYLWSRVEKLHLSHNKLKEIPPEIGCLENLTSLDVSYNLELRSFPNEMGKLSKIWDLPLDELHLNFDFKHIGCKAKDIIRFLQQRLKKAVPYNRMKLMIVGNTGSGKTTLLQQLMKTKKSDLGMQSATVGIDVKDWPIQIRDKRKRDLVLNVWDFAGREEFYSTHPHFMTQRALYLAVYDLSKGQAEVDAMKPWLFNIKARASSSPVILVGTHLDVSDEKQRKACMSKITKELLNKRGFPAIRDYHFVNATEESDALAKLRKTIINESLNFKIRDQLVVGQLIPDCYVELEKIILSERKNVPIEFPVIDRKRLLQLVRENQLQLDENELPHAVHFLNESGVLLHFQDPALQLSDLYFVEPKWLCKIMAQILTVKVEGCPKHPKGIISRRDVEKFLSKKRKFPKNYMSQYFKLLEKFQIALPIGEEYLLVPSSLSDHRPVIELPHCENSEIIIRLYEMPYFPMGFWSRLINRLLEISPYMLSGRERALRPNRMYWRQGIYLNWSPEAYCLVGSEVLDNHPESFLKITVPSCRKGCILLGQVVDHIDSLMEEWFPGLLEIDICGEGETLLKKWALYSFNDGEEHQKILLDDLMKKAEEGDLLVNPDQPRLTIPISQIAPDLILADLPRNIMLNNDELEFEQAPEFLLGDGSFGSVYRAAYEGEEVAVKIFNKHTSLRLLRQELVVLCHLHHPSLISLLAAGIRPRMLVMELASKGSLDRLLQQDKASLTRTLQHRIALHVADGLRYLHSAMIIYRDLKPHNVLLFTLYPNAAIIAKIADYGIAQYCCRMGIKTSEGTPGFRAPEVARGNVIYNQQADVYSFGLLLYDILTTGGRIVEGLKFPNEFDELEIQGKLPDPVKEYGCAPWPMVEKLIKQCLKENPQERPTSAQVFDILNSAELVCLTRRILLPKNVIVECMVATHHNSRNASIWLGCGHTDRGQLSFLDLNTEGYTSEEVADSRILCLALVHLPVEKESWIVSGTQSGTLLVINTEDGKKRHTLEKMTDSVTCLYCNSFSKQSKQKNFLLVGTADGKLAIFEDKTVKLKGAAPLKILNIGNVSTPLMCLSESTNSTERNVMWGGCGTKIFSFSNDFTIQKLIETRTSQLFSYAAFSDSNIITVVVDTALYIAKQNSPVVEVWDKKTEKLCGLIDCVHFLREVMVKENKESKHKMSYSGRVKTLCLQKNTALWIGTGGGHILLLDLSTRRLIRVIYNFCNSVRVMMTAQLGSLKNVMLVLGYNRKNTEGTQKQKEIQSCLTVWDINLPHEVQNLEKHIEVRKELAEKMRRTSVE
Sequence of UniProt P43403 (whole entry, looked up): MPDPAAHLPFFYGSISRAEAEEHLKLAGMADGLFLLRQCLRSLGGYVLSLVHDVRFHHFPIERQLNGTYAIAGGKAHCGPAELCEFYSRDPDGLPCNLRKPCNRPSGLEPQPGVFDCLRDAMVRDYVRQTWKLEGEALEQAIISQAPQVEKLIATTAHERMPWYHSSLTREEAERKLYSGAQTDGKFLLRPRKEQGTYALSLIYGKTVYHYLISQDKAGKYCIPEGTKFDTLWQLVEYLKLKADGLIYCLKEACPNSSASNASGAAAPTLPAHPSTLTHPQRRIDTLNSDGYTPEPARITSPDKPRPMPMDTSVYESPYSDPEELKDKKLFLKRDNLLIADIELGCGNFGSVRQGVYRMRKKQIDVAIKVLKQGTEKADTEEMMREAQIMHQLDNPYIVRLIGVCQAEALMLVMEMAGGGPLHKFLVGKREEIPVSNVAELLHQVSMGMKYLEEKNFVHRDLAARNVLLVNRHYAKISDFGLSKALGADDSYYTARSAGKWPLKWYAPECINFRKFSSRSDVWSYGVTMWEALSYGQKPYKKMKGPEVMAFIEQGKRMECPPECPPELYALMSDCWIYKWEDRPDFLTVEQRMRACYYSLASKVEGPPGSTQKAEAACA
Sequence of UniProt Q12852 (whole entry, looked up): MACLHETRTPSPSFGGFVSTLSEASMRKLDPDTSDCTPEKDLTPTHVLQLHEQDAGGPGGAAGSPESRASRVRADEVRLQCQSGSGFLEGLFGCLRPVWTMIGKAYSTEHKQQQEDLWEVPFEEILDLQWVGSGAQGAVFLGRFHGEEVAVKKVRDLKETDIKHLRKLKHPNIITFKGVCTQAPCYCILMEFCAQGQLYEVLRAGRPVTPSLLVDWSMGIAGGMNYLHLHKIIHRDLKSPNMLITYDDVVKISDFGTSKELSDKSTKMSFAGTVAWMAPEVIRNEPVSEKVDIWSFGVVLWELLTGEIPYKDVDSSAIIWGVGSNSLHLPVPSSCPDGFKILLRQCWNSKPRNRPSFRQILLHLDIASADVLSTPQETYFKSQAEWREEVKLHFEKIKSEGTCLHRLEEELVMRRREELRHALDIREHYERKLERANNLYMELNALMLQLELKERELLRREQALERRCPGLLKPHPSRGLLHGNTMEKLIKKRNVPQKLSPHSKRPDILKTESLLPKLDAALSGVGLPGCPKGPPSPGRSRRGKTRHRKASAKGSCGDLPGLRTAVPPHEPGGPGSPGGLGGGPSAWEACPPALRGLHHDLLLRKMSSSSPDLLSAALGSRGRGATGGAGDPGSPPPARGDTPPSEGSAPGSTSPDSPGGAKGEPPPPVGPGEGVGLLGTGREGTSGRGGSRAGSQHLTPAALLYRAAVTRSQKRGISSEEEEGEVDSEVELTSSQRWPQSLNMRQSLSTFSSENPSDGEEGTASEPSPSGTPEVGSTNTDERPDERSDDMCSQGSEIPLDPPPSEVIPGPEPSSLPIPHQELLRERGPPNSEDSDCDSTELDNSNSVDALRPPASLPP

Sample 1 — read-out: enzyme activity; action: inhibitor; tested at: 0.5 µM; reference: control
Target: Mitogen-activated protein kinase kinase kinase kinase 5 (MAP4K5, Homo sapiens, UniProt Q9Y4K4)
Sequence of UniProt Q9Y4K4 (whole entry, looked up): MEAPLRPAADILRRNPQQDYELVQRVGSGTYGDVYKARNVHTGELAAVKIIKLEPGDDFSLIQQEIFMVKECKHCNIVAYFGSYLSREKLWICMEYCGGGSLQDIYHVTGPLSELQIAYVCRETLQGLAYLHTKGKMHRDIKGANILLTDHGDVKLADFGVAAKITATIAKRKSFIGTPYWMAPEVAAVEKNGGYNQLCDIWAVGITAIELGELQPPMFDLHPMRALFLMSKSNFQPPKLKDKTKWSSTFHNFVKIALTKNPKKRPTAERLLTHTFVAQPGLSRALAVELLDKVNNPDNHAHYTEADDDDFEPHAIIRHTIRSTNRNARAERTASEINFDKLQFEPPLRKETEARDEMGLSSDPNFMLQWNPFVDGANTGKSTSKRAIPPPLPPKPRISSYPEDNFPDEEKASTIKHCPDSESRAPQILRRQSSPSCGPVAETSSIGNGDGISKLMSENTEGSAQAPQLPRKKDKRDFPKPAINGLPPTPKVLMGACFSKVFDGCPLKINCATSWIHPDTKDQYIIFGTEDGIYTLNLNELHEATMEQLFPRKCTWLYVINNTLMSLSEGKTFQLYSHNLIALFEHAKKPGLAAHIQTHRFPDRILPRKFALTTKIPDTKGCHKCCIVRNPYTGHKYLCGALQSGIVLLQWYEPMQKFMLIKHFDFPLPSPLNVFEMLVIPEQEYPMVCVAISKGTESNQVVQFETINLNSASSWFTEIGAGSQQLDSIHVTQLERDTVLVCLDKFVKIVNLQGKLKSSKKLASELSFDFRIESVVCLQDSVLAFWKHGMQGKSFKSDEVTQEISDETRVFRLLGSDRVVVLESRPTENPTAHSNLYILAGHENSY
Compound | remaining activity
FC(F)(F)c1ccc(/C=C/c2nc(COc3ccc(CCCCn4ccnn4)cc3)co2)cc1 | 96.5%
NC(=O)c1ccc(-c2nc(-c3ccc4c(c3)OCCO4)c(-c3ccccn3)[nH]2)cc1 | 95.1%
N#C/C(=C(/N)SC1C=CC=CC1)c1cccc(C(O)c2ccncc2)c1 (stereo not shown) | 94.8%
O=Nc1c(-c2c(O)[nH]c3ccccc23)[nH]c2ccccc12 | 37.8%
N#CC(c1ccnc(NCCc2cccnc2)n1)c1nc2ccccc2s1 (stereo not shown) | 87.5%
c1cc(-c2cnn3cc(-c4ccc(OCCN5CCCCC5)cc4)cnc23)ccn1 | 7.24%
COc1cc2c(N3CCN(C(=O)Nc4ccc(OC(C)C)cc4)CC3)ncnc2cc1OCCCN1CCCCC1 | 87.6%
CNc1cc2c(Nc3cccc(Br)c3)ncnc2cn1 | 77.1%
CC(C)N(CCC(=O)c1ccc2ccccc2c1)Cc1ccccc1 | 90.2%
NC(=O)c1cccc(-c2cc(Nc3ccc(OC(F)(F)F)cc3)ncn2)c1 | 97.8%
Nc1nc(Nc2ccc(S(N)(=O)=O)cc2)nn1C(=S)Nc1c(F)cccc1F | 1.71%
O=C(O)/C=C/c1cc(Br)c(Br)c(Br)c1Br | 80.3%
CCCCc1c(-c2ccc(O)cc2)[nH]c2nccnc12 | 65.3%
COc1cc2c(Nc3ccc(Br)cc3F)ncnc2cc1OCC1CCN(C)CC1 | 37.1%
CC(C)(C)c1nc2c3cc[nH]c(=O)c3c3cc(F)ccc3c2[nH]1 | 65.8%
O=C(c1ccccc1)c1ccc(N2CCOCC2)cc1O | 100%
O=c1c(-c2ccc(F)cc2)c(-c2ccncc2)[nH]n1-c1ccc(Cl)cc1 | 83.1%
O=C1NC(=O)/C(=C/c2ccc3c(c2)OC(F)(F)O3)S1 | 88.1%
CC(C)n1cnc2c(Nc3cccc(Cl)c3)nc(NCCO)nc21 | 81.5%
O=C1c2ccccc2-c2nc3nnnn3nc21 | 78.7%
CCN(CC)CCCCN1c2ccccc2Oc2ccc(Cl)cc21 | 93.4%

Sample 2 — Structure (SMILES): O=C(Nc1ccccc1)Nc1cccc(Oc2ccc3nccn3n2)c1; tested at: 1 µM
target | technique | refers to | setting | reference | remaining binding [%]
Calcium/calmodulin-dependent protein kinase kinase 2 (CAMKK2, Homo sapiens, UniProt Q96RR4) | competitive binding panel |  |  | vehicle | 100
Dual specificity mitogen-activated protein kinase kinase 7 (MAP2K7, Homo sapiens, UniProt O14733) | competitive binding panel | MKK7 |  | vehicle | 100
Ephrin type-B receptor 6 (EPHB6, Homo sapiens, UniProt O15197) | competitive binding panel |  |  | vehicle | 91
Dual specificity protein kinase TTK (TTK, Homo sapiens, UniProt P33981) | competitive binding panel |  |  | vehicle | 100
Beta-adrenergic receptor kinase 1 (GRK2, Homo sapiens, UniProt P25098) | competitive binding panel |  |  | vehicle | 100
Serine/threonine-protein kinase 35 (STK35, Homo sapiens, UniProt Q8TDR2) | competitive binding panel |  |  | vehicle | 89
Death-associated protein kinase 2 (DAPK2, Homo sapiens, UniProt Q9UIK4) | competitive binding panel |  |  | vehicle | 100
Calcium/calmodulin-dependent protein kinase type II subunit beta (CAMK2B, Homo sapiens, UniProt Q13554) | competitive binding panel |  |  | vehicle | 100
Serine/threonine-protein kinase 3 (STK3, Homo sapiens, UniProt Q13188) | competitive binding panel | MST2 |  | vehicle | 100
Cyclin-dependent kinase-like 2 (CDKL2, Homo sapiens, UniProt Q92772) | competitive binding panel |  |  | vehicle | 96
Serine/threonine-protein kinase 10 (STK10, Homo sapiens, UniProt O94804) | competitive binding |  | LOK |  | 82
NUAK family SNF1-like kinase 1 (NUAK1, Homo sapiens, UniProt O60285) | competitive binding panel | ARK5 |  | vehicle | 100
Leucine-rich repeat serine/threonine-protein kinase 2 (LRRK2, Homo sapiens, UniProt Q5S007) | competitive binding panel |  |  | vehicle | 100
Ribosomal protein S6 kinase alpha-5 (RPS6KA5, Homo sapiens, UniProt O75582) | competitive binding scan |  | N-terminal kinase domain 1 |  | 100
Mast/stem cell growth factor receptor Kit (KIT, Homo sapiens, UniProt P10721, T670I/V559D) | competitive binding panel |  |  | vehicle | 80
Serine/threonine-protein kinase PAK 5 (PAK5, Homo sapiens, UniProt Q9P286) | competitive binding panel | PAK7 |  | vehicle | 71
Serine/threonine-protein kinase 36 (STK36, Homo sapiens, UniProt Q9NRP7) | competitive binding panel |  |  | vehicle | 100
Tyrosine-protein kinase SYK (SYK, Homo sapiens, UniProt P43405) | competitive binding panel |  |  | vehicle | 88
Macrophage-stimulating protein receptor (MST1R, Homo sapiens, UniProt Q04912) | competitive binding panel |  |  | vehicle | 100

Sample 3 — cell line: A-375; tested at: 100 µM; time: 36 h
SMILES | viability [%]
NC(=O)c1ncn([C@@H]2O[C@H](CO)[C@@H](O)[C@H]2O)n1 | 100
CS(=O)(=O)c1ccc([C@@H](O)[C@@H](CO)NC(=O)C(Cl)Cl)cc1 | 106
Nc1nc(Cl)nc2c1ncn2[C@H]1C[C@H](O)[C@@H](CO)O1 | 23.8
COc1cc2c(N3CCN(C(=O)Nc4ccc(OC(C)C)cc4)CC3)ncnc2cc1OCCCN1CCCCC1 | 4.58
O=C(c1ccccc1)c1ccc2n1CCC2C(=O)O (stereo not shown) | 39.7
COc1ccc(CN=c2[nH]c(N3CCC[C@H]3CO)ncc2C(=O)NCc2ncccn2)cc1Cl | 33.1
NC(N)=Nc1nc(CSCCC(N)=NS(N)(=O)=O)cs1 | 104
Cc1oncc1C(=O)Nc1ccc(C(F)(F)F)cc1 | 61.5
CCCCC(O)c1ccccc1 (stereo not shown) | 106
CC1(O)CCC(C(C)(C)O)CC1 (stereo not shown) | 105
COc1ccc(Cl)cc1C(=O)NCCc1ccc(S(=O)(=O)NC(=O)NC2CCCCC2)cc1 | 96.8
COC(=O)C1=CO[C@@H](O[C@@H]2O[C@H](CO)[C@@H](O)[C@H](O)[C@H]2O)[C@@H]2C(CO)=CC[C@H]12 | 116
O=C(O)c1cn(-c2ccc(F)cc2)c2cc(N3CCNCC3)c(F)cc2c1=O | 103

Sample 4 — read-out: cell-free assay; technique: competition with immobilised ligand; tested at: 1 µM
SMILES: CC(=O)N1CCC(c2ccc(C(=O)NC3=NCCN3)cc2C(F)(F)F)CC1
target | remaining binding [%]
Homeodomain-interacting protein kinase 4 (HIPK4, Homo sapiens, UniProt Q8NE63) | 100
Transient receptor potential cation channel subfamily M member 6 (TRPM6, Homo sapiens, UniProt Q9BX84) | 90
Serine/threonine-protein kinase ULK1 (ULK1, Homo sapiens, UniProt O75385) | 85
Cyclin-dependent kinase-like 3 (CDKL3, Homo sapiens, UniProt Q8IVW4) | 100
Serine/threonine-protein kinase 17A (STK17A, Homo sapiens, UniProt Q9UEE5) | 100
Mitogen-activated protein kinase kinase kinase 20 (MAP3K20, Homo sapiens, UniProt Q9NYL2) | 88
Serine/threonine-protein kinase 32B (STK32B, Homo sapiens, UniProt Q9NY57) | 100
Serine/threonine-protein kinase MAK (MAK, Homo sapiens, UniProt P20794) | 61
Leucine-rich repeat serine/threonine-protein kinase 2 (LRRK2, Homo sapiens, UniProt Q5S007) | 100
Dual specificity tyrosine-phosphorylation-regulated kinase 2 (DYRK2, Homo sapiens, UniProt Q92630) | 93
Dual specificity testis-specific protein kinase 1 (TESK1, Homo sapiens, UniProt Q15569) | 72
Protein kinase C iota type (PRKCI, Homo sapiens, UniProt P41743) | 83
Tyrosine-protein kinase ZAP-70 (ZAP70, Homo sapiens, UniProt P43403) | 97
Protein kinase C epsilon type (PRKCE, Homo sapiens, UniProt Q02156) | 84
Serine/threonine-protein kinase WNK1 (WNK1, Homo sapiens, UniProt Q9H4A3) | 99
Tyrosine-protein kinase ABL1, phosphorylated (ABL1, Homo sapiens, UniProt P00519, H396P) | 100
Mitogen-activated protein kinase kinase kinase 12 (MAP3K12, Homo sapiens, UniProt Q12852) | 100
Platelet-derived growth factor receptor alpha (PDGFRA, Homo sapiens, UniProt P16234) | 92
Atypical kinase COQ8A, mitochondrial (COQ8A, Homo sapiens, UniProt Q8NI60) | 95
NT-3 growth factor receptor (NTRK3, Homo sapiens, UniProt Q16288) | 100
Ephrin type-A receptor 4 (EPHA4, Homo sapiens, UniProt P54764) | 100
Cyclin-dependent kinase 18 (CDK18, Homo sapiens, UniProt Q07002) | 100
Serine/threonine-protein kinase PLK4 (PLK4, Homo sapiens, UniProt O00444) | 100

Excerpt of the above (sample 2):
target | technique | refers to | setting | reference | remaining binding [%]
Beta-adrenergic receptor kinase 1 (GRK2, Homo sapiens, UniProt P25098) | competitive binding panel |  |  | vehicle | 100
Serine/threonine-protein kinase 35 (STK35, Homo sapiens, UniProt Q8TDR2) | competitive binding panel |  |  | vehicle | 89
Death-associated protein kinase 2 (DAPK2, Homo sapiens, UniProt Q9UIK4) | competitive binding panel |  |  | vehicle | 100
Calcium/calmodulin-dependent protein kinase type II subunit beta (CAMK2B, Homo sapiens, UniProt Q13554) | competitive binding panel |  |  | vehicle | 100
Serine/threonine-protein kinase 3 (STK3, Homo sapiens, UniProt Q13188) | competitive binding panel | MST2 |  | vehicle | 100
Cyclin-dependent kinase-like 2 (CDKL2, Homo sapiens, UniProt Q92772) | competitive binding panel |  |  | vehicle | 96
Serine/threonine-protein kinase 10 (STK10, Homo sapiens, UniProt O94804) | competitive binding |  | LOK |  | 82
NUAK family SNF1-like kinase 1 (NUAK1, Homo sapiens, UniProt O60285) | competitive binding panel | ARK5 |  | vehicle | 100
Leucine-rich repeat serine/threonine-protein kinase 2 (LRRK2, Homo sapiens, UniProt Q5S007) | competitive binding panel |  |  | vehicle | 100
